Results of several laboratories.
Numbered parts are unrelated; each lists some results of a single study.

Sample 1
Target: Ras GTPase-activating protein-binding protein 1, C-terminal RGG region (G3BP1, Homo sapiens, UniProt Q13283)
Chain of UniProt Q13283 (whole entry, looked up): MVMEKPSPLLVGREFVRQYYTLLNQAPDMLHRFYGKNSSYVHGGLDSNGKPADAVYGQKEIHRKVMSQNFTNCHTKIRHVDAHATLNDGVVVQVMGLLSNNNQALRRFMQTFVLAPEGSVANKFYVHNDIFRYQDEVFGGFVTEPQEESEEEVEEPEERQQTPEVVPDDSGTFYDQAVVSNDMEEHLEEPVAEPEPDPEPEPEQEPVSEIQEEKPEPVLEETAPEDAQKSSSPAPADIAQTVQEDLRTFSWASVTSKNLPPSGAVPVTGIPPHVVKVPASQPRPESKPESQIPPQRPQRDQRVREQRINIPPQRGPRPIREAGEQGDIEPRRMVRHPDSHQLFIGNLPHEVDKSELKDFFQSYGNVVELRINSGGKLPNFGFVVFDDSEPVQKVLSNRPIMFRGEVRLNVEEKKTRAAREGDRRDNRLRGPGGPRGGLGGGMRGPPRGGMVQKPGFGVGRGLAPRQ
Method: RNA Bind-n-Seq
Form: RNA
Matrix: in vitro
Tested at: 1 µM
Setting: whole 134-nt RNA, ends assumed
With: 150 mM KCl
Relative to: input library
Reading: higher = stronger binding
Measurement: log2 enrichment
Shared flanks, not repeated: GGGAGUUCUACAGUCCGACGAUC … UGGAAUUCUCGGGUGUCAAGG
CCUCAAGUCCUGUGCUACACAUCGUAUGUACCGAAUCGGAAAAAGGAGGAGGAAAGUAUUAUGUUACGCCGUUCGGAUCUGCACUUCCAG: -0.73
ACCAUGCAGGUGGGCAUCUUUGGGAAGUGGGGCAAGGGGGGGAUAGGGAGGGGGGUAACAGUUUGGGAACAGGUGGUCCCAGGUCGUUUC: 2.32
UAACUUUAGAGGAGGAUCUGCUGGAUAUGGCAGUGGACGUGGAUUUGGGGAUGGCUAUAAUGGGUAUGGAGGAGGACCUGGAGGUGGCAA: -0.815
CACAGACAACACGCACCCACACAGACACAGAGGGAAGGGGUUGGGAUGGGGACAGGGUGCACAGAAAGGCGGGGUAGGACCCCAGCCCCU: -0.0127
AAGUCCUGUGCUACACAUCGUAUGUACCGAAUCGGCCCCGGGGCCCCGGGCCCCGGAAAGUAUUAUGUUACGCCGUUCGGAUCUGCACUU: -1.77
CCUGUGCUACACAUCGUAUGUACCGAAUCGGGGCCCCCGGGGCCCCCGGGGCCCCCGGGGAAAGUAUUAUGUUACGCCGUUCGGAUCUGC: -1.94
UUGUAUUAAGACAACGCUCCUCGACUUAGAUGCCUUGGCAAGACAUUUGGCUGACUGUAUUCGAAGGUAAAAUUUGAUGUGAAAUUGACA: -0.862
CCUCAAGUCCUGUGCUACACAUCGUAUGUACCGAAUCGGCGGGCGGGGCGGGGAAAGUAUUAUGUUACGCCGUUCGGAUCUGCACUUCCA: -0.317
CCUCAAGUCCUGUGCUACACAUCGUAUGUACCGAAUCGGUGGAAAGGAAAGGAAAGUAUUAUGUUACGCCGUUCGGAUCUGCACUUCCAG: -0.79
CAAGUCCUGUGCUACACAUCGUAUGUACCGAAUCGGGCCCGGGCCCGGGGCCCGGAAAGUAUUAUGUUACGCCGUUCGGAUCUGCACUUC: -1.86
GGUGCGGCUCUAUGAGUGGACAACAGAGAAGGAGCUGCGCACUGAGUGCAACCACUACAACAACAUCAUGGCCCUCUACCUGAAGACCAA: -1.19
GUCCUGUGCUACACAUCGUAUGUACCGAAUCGGGGUUUUUGGGGUUUUUGGGGAGGGGAAAGUAUUAUGUUACGCCGUUCGGAUCUGCAC: 1.51
CAAGUCCUGUGCUACACAUCGUAUGUACCGAAUCGGGAAAGGGAGGGAAAAAGGGAAAGUAUUAUGUUACGCCGUUCGGAUCUGCACUUC: 1.81
CUCAAGUCCUGUGCUACACAUCGUAUGUACCGAAUCGGAAAGGGAAAGGAAAGGAAAGUAUUAUGUUACGCCGUUCGGAUCUGCACUUCC: -1.54

Sample 2
Target: RNA binding protein fox-1 homolog 2, RRM domain, GST-SBP tag (RBFOX2, Homo sapiens, UniProt O43251-10, residues 100-194)
Method: RNA Bind-n-Seq
Form: RNA
Matrix: in vitro
Tested at: 365 nM
Setting: natural RNA segment, single round, ends assumed
Relative to: no-protein control
Reading: higher = stronger binding
Measurement: RBNS enrichment (R)
Shared flanks, not repeated: GGGAGUUCUACAGUCCGACGAUC … UGGAAUUCUCGGGUGCCAA
Target sequence (chain): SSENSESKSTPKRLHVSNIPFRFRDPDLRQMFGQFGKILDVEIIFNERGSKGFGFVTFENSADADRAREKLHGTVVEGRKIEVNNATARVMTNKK
UCCAUAACUCCAAGUGAGUCUGUAAUGUUUGUGAAGCUUGACUGUAACCAUGUUUUUUCUGUUUAAUUAUGUAAAAAACAAAACUACAACAACAAAAAAAGAAAAAAGUU: 0.602
UUGUCUUCUUUCUCUCCUCACCCAACUCCCUUUGCCUCUCCCCAAACCGGGCCGCCAGGAUCCCUCCCCGCGGCGGCGAUGGCCCGAGCCAUGAGAGUGAGGACUUUCCG: 0.48
UUACCCUUUUAGCAGAUAAUUCGGAGCAUUAUUUAUUUAAAGAAUUUAUAAUUCUACAGUACCUAUUAAUGCUGUACUUCCAGGAUGCUCAUGCCCAUUUUAUUCUUAUA: 0.435
CUUCUAGCUCUCCAGGUGAGCAGAAAGACCAAAUAUCCAAAUAAAAGCCUGAAAGCCAUUGGUGAUCCAGGGGCACCUUCUCUUCAGCUUGACUGGGCGUCUUCCGCUGC: 0.381
UAAAUAUCCCUCAACAGACACAGGCCUGGUACCUGGGUAAAAGUUGCAGCAUCCCACCAUCCUCCAGACAGACCACCUGACCCCUUCUCAACUCUGUAACAUGGACGCAA: 2.24
AUUUAGUCAAUUUACCGUGUCUUAAUUUAAUCUUUGUACACCUUCCAUUUUUAAGUGCUUAAAUGAGUACUAUAUUGCAAUAAAAAAUGUAGCGAUAUUAAAAAAAAUGU: 0.409
GUCAGUGCUCUGCUCUCACCCUGCCCAAGACUCACCUCCCUUCCCCUCUGCAGGCCGACGGCAGGAGGACAGUCGGGUGAUGGUGUAUUCUGCCCUGCGCAUCCCACCCG: 0.379
CCUCAUAACUCUACCACCAUUAUAAUGGAUCUAUAUAAAAUUGCUUAAUAUCAGUAGCCUAAAUUUAGGAGCACUAUAGUUUUAAAAAUACUUAAUUGGCUACUUUAUUU: 1.05
UACAGUUAGAAAGCAAAGUGUUAAAUGGAGAAGAUACUUGUUUUUAUUAAACAUUUUGAGAUUUAGAUAAACUACAUUUUAACUGAAUGUCUAAAGUGAUUAUCUUUUUU: 0.787
ACCUGCGUGGCUUCAGACAAGGCCCCAGCGUUACUGGGCUCAGCUUGUUGUUCUGUGUGGAGCGUGAGGUGAGAAAACCCCUCUGAAAAGAUGUGGUCGGGGCCACGCUU: 0.719
CCUCACACAGUAGUACUAGUUGACAGUACUAGUUGGUUGAAACUAGGGAGACAGUUACCUAGACUACCAGGUAGAAGGGACAGGGGUCAGGUCAACCUCACACUGAUAUG: 0.424
CUCAGAGCCCUGCCCUGCACCCUUGUACAGUGUCUGUGCCAUGGAUUUCGUUUUUCUUGGGGUACUCUUGAUGUGAAGAUAAUUUGCAUAUUCUAUUGUAUUAUUUGGAG: 0.31

Sample 3
Target: Interferon regulatory factor 3, full length, phosphomimetic (IRF3, Homo sapiens, UniProt Q14653, residues 1-427, S386D/S396D/S398D/S402D/T404D/S405D)
Method: protein-binding microarray
Form: double-stranded DNA, one strand shown
Matrix: in vitro
Tested at: 2540 nM top
Setting: 60-bp whole probe
With: salmon DNA 0.4 mg/ml
Relative to: random background probes
Reading: higher = stronger binding
Measurement: fitted relative affinity
Shared flanks, not repeated: GCCTAGCAC … GTCTTGATTCGCTTGACGCTGCTG
Target sequence (chain): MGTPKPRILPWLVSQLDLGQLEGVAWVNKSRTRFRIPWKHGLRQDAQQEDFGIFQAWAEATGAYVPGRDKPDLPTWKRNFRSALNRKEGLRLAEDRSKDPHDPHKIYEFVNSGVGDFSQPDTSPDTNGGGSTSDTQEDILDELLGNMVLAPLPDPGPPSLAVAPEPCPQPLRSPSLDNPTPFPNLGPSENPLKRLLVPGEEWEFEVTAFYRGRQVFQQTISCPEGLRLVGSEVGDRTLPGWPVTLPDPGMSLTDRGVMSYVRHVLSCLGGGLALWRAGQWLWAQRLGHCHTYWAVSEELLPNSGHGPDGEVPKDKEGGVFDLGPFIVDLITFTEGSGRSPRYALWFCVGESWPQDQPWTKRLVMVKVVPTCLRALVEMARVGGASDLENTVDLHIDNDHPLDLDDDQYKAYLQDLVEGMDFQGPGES
GACGATTTTAGACTGGAGACGTGCTAG: 0.385 z-score
TGTAGTGTGTGTCTGATTATGTGCTAG: 0.0105 z-score
TCAAGGCCAGGGTTTCTGTTGTGCTAG: -0.293 z-score
TTAGATATAAGTATCGATTAGTGCTAG: 0.501 z-score
GACGGACTGAGTCTCGAGACGTGCTAG: -0.723 z-score
TTTCCTTTATGTCCTGTCTAGTGCTAG: 9.07 z-score
TTAGTTTTCGGTCTCGGTTAGTGCTAG: 6.12 z-score
TCAACTTTCTCTGCTCTTACTGTGCTA: 1.14 z-score
TTAGGAATGGGTCTCGGTTAGTGCTAG: -0.45 z-score
TCGTATGTGACCTTTTTAAGAGTGCTA: 2.15 z-score
TTAGATATCGACACTGGGTTAGTGCTA: -0.336 z-score
TTAGATTTCGGGTTTAGATTAGTGCTA: 2.27 z-score
GACGGTATCGGTCTGGGGACGTGCTAG: 2.66 z-score
GACGATTTCAGTTCTGAGACGTGCTAG: 3.23 z-score
GGATGTCTGTAGCTCATTCTGTGCTAG: 0.0338 z-score
TCACATTTCCCTTGCCGACTGTGCTAG: 1.78 z-score
GGCGATTTCAGACTGGAGACGTGCTAG: 0.524 z-score
TTAGATATCGGACTGGGTTAGTGCTAG: -0.14 z-score
TCATTTTTCTGATCCATACTGTGCTAG: 2.58 z-score
GACGATTTCAGGTCCGAGACGTGCTAG: 1.31 z-score
GACAGTCTCGGTCTCGGGACGTGCTAG: 1.21 z-score
GCCGATCTCAGTTTCGAGACGTGCTAG: 3.82 z-score
GCCGGTTTCCTTATCCTGACGTGCTAG: 7.74 z-score
GACGGCATCCTTATCCTGACGTGCTAG: 0.135 z-score
TCAAAGTTCTTTTTTTCACTGTGCTAG: 0.912 z-score

Sample 4
Target: Hepatocyte nuclear factor 3-alpha (Foxa1, Mus musculus, UniProt P35582, residues 1-468, full length assumed)
Chain of UniProt P35582 (whole entry, looked up): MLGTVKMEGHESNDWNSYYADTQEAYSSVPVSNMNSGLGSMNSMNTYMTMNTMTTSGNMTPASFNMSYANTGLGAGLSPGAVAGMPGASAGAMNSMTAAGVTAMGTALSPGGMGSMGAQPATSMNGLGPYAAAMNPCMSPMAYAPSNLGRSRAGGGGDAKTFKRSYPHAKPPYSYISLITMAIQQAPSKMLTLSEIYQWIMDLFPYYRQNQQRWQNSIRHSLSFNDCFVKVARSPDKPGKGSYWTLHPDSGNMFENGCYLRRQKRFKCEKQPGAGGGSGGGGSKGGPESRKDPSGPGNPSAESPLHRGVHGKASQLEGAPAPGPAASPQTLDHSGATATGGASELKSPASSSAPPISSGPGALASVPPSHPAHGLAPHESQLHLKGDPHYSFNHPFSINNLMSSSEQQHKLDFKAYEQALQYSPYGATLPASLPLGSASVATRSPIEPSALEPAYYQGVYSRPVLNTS
Method: EMSA with sequencing
Form: double-stranded DNA, one strand shown
Matrix: in vitro
Tested at: 10 and 20 nM
Setting: whole designed probe, mean of two concentrations, ends assumed
Relative to: negative control set to 0
Reading: higher = stronger binding
Measurement: normalised bound fraction
Shared flanks, not repeated: GTGAGCGGTGCCCATTGATGGGGAAC … TTTCACTGGGATCGTGGGGAC
AAATGCCAACGTGTATTGGACTTCCCTCTAGTGGTTACATGCAAAATGACAAGCCTATAGTTCCCAAACAGAATGTTGTGTTGTTCTCTACACAGATTACTTAGCAATCAGCAAAATTACTGTGCTTCACTCCATGTACCTTCCATTCACACACTTGGCAAACACCATATCTTCCATGATATTCTCCTGTATC: 0.0814 ratio
TGTGAGCTTGTTTGTTCACTGAAAGCACTCATCATAAGCCTCATCAATATAAAAACTCTTGGTAGGACCAAGGGCAAACTAAGCTGAAGATCATGTTTGCATAGTTCACCTGCAACTTACCAACGTAGTTCAGAATAGAGTATGTCAAACCACCTTATAAAAACTGGGGCATCTGAAGGCATAAAAGTGTTCA: 0.33 ratio
CAGAAGAATTTTGAGACAAGTTCTCAAACATTTCTCTGCCTTATGGACCCAAACATCCAGTTTCTCCTTTATGCCCAGGTTGCAGTTCAGCTCCTGTTTACATTGAGATCTTTGTGCAATTCCTAATATGGCCCAGTTTCCCTCACCCAACATGTTGGGTGGAGCCCAGTATCTTCAGGCTCCAGCTGGGCCC: 0.245 ratio
GGCAATATAATTATTTACTGGGTGCGTGGCTCACGCCTGTAATCCCAGCATTTTGGGAGGCCTAATTTGTTAAAATGACTAGATCTAAGAAATGTAAACAAAGCCAGTAACTTTCCTCTGTAGTAACAATAGCCGGTTGAAAATGAAAACTACACATTTTCATTCTTTCAGTGGTTCTCTTAAACTTTAGCAT: 0.381 ratio
ATCTTCCCCCTCTTCCTTGCCCCACCAGCTCACCTTCCCGGGTTATTTGCAGATAGGAAAATAAATAAAGCCGGCATTCGTTAACCCTCTTCTGGCGCAAACTGCTGTTTGCTCTGGATGAATCATGGTCCTTTGGCGACGCCAGGCTCCGGGAGAGCAAAGCACCGTGTCAGGGCCATGACTGCGGGTGGCC: 0.331 ratio
GAAGGAAATAATGGAGCCAACCATGCATATAACCTCAGGGAGAACATTCTAGGTAGAGGGAACAGCAAGTGCAAAGGCCCTGAAGTGGGGGTTTGTTTACCTTCTGCAGTTGCACAATCACAGGCCAGTACAATTGGAATGGATGGGAAATGTAAAAGAGAGAAGTTGAAAAGGCCAGGTGCAGTGGCTCATG: 0.389 ratio
GGAAGGAGAATATCTCTGCTACTTTATTTTTGTGTATTAGCTGATTGTTTCACGTGAAGAATGCTCACATGGTTTTTGCAATGTGCTGGCATAAGATGACATATTGATGCGTAGATGTGTTTGTGTGTTTGGTTTTAGGCAAATGGCACCAAGGCTTGAACTGCGACTCCCGAAGTGACCAGTGCCACCATCC: 0.0157 ratio
ATCTTCCCCCTCTTCCTTGCCCCACCAGCTCACCTTCCCGGGTTATTTGCAGATAGGAAAATAAATAAAGCCGGCATTCGTTAACCCTCGATGAATCATGACTGCCAGAGCAAACAGATCTAACATGGTCCTTTGGCGACGCCAGGCTCCGGGAGAGCAAAGCACCGTGTCAGGGCCATGATCCGGGGTGGCC: 0.39 ratio
